Assay results gathered from unrelated publications.
Compare with care: the assays were run in different laboratories. Values joined by “and” are separate records of one study, mostly repeats; a detail may differ. Numbers after ± are the reported error.

C=CCn1c(=O)c2cnc(Nc3ccc(N4CCN(C)CC4)cc3)nc2n1-c1ccc2c(n1)[C@@](O)(CC)CC2  body weight loss (mouse, A-427 xenograft; 20 to 80 mg/kg once daily, 28 days; relative to: vehicle): < 10%
COc1ccc(S(=O)(=O)ON=C2C=C(C)C(=O)C(C)=C2)cc1  body weight change (NU/NU mouse, MDA-MB-468 xenograft; intraperitoneal, 0.5 mg twice weekly): ≤ 10%
O=C(O)CSc1nnc(Br)n1-c1ccc(C2CC2)c2ccccc12  body weight (KM mouse, chronic hyperuricaemia model; dose not given, day 8): 25.4 g and 29.7 g and 24.8 g and 29.2 g and 32.5 g and 30.5 g
CC(C)(C)c1ccc(C(=O)Nc2ccc3[nH]c(C(=O)NO)cc3c2)cc1  body weight gain (mouse, 2LMP human breast cancer orthotopic xenograft; intraperitoneal, 50 mg/kg five times per week, 3 weeks; relative to: vehicle): not toxic
Nc1nnc(-c2ccccc2O)cc1N1CCN(Cc2ccc(OCCOCCNc3cccc4c3C(=O)N(C3CCC(=O)NC3=O)C4=O)c(F)c2)CC1 (stereo not shown)  body weight decrease (nude mouse xenograft; intraperitoneal, 12.5 mg/kg daily; relative to: vehicle): 5 to 10%
CCCCCN1C[C@H](O)[C@@H](O)[C@H](O)[C@@H]1CO  body weight (mouse Hexb-/-; dose not given, at euthanasia, 105 days of age): no effect
O=C1CCC(=O)N1Cc1cc2nccc(-c3cc(Cl)cc4c3N([C@@H]3CNC5(CCC5)C3)CCC4)c2s1  body weight loss (mouse, MV4-11 xenograft; 30 mg/kg twice daily, 24 days): < 5%
NC[C@@H]1O[C@H](O[C@H]2[C@@H](O)[C@H](O[C@@H]3[C@@H](O)[C@H](N)C[C@H](N)[C@H]3O[C@H]3O[C@H](CO)[C@@H](O)[C@H](O)[C@H]3N)O[C@@H]2CO)[C@H](N)[C@@H](O)[C@@H]1O  body weight (NSG mouse; dose not given, day 1 of treatment): 21.4 g and 20.7 g and 21.2 g and 21.8 g
COc1cccc2c1C(=O)c1c(O)c3c(c(O)c1C2=O)C[C@@](O)(C(=O)CO)C[C@@H]3O[C@H]1C[C@H](N)[C@H](O)[C@H](C)O1  body weight loss (mouse 4T1 tumour; 10 mg/kg, 14 days): ~19%
Cc1nc(-c2ccc(OCC(C)C)c(C#N)c2)sc1C(=O)O  body weight (KM mouse, chronic hyperuricaemia model; dose not given, day 12): 37.2 g and 33.8 g and 30 g and 29 g and 34.6 g
CCCCc1nc2cc(/C=C/C(=O)NO)ccc2n1CCN(CC)CC  body weight (mouse, HEL 92.1.7 subcutaneous xenograft; 75 mg/kg every other day, day 17; relative to: baseline): 103%
O=C(/C=C/CCc1ccc(O)cc1)/C=C/c1ccc(O)cc1  body weight (nude mouse MCF7 xenograft; 40 mg/kg, day 9): 20 ± 1 g
CC(=O)O[C@@]12CO[C@@H]1C[C@H](O)[C@@]1(C)C(=O)[C@H](O)C3=C(C)[C@@H](OC(=O)[C@H](O)[C@@H](NC(=O)OC(C)(C)C)c4ccccc4)C[C@@](O)([C@@H](OC(=O)c4ccccc4)[C@H]21)C3(C)C  body weight loss (healthy BALB/c mouse; intravenous, 10 mg/kg every 3 days, three doses): -14.3%
